Measured values pooled from the literature.
Lines come from different studies, so protocols differ. Several values in a cell are separate wells, animals, samples, runs or records.
TDP1: Tyrosyl-DNA phosphodiesterase 1 (TDP1, Homo sapiens, UniProt Q9NUW8)
UniProt Q9NUW8, sequence (whole entry, looked up): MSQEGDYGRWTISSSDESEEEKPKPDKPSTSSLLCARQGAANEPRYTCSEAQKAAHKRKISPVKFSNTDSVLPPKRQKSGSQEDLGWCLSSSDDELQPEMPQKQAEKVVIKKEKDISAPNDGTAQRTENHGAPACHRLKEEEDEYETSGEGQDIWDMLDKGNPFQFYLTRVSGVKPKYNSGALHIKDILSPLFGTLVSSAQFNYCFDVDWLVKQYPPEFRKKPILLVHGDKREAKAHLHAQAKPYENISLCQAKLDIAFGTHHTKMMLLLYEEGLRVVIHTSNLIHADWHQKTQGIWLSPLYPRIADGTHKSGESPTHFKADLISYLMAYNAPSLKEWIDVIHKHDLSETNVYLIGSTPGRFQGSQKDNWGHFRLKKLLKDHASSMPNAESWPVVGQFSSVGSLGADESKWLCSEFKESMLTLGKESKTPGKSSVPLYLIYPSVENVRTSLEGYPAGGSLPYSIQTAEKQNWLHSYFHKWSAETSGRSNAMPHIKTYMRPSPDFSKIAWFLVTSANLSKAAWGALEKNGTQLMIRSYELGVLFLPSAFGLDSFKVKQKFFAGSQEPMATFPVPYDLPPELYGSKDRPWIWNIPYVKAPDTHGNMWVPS

| SMILES | tested on | assay | conditions | measurement | result |
| --- | --- | --- | --- | --- | --- |
| Cc1ccc2c(c1)nc(NC(=O)c1cccc(C(F)(F)F)c1)n2[C@H]1CC[C@H](N)CC1 | HepG2 | cytotoxicity | 4 days, single replicate | CC50 | 1.1 µM and 2.16 µM and 3.41 µM and 2.2 µM and 2.15 µM and 2.98 µM and 2.21 µM and 2.59 µM |
| CCc1cc(CCN)nc(-c2nc(=O)c3ccc(F)cc3s2)c1 | HepG2 | cell growth or viability |  | CC50 | > 25 µM |
| CC1(C)C(NC(=O)C(=NOC2(C(=O)O)CC2)c2csc(N)n2)C(=O)N1OS(=O)(=O)O (stereo not shown) | HepG2 | cell growth or viability |  | CC50 | > 100 µM |
| NCCc1cccc(-c2nc(=O)c3ccccc3s2)n1 | HepG2 | cell growth or viability, resazurin | 24 h | CC50 | 73.4 µM |
| O=C1C(NCCc2cc(Br)c(O)c(Br)c2)=CC2=NCCc3c[nH]c1c32 | HepG2 | cell growth or viability, MTT | 72 h | CC50 | 18 µM |
| CCOC(=O)c1c(C(=O)OC)cn(CC(c2cn(C)c3ccccc23)c2cn(C)c3ccccc23)c1C | HepG2 | cell growth or viability, MTS | 24 h | CC50 | > 20 µM |
| O=C(O)c1ccc(Nc2c(-c3ccc(CON=Cc4cnc(O)c(Cl)c4)cc3)nc3cc(-c4ccccc4)ccn23)cc1 (mixture of isomers) | TDP1 | enzyme activity, inhibitor | 100 µM, unpurified compound | inhibition | 99.7% |
| CCc1cc(CCN)nc(-c2nc(=O)c3ccccc3s2)c1 | HepG2 | cell growth or viability |  | CC50 | > 25 µM |
| Cc1ccc(S(=O)(=O)n2cc3c4c2C(=O)C(N)=CC4=NCC3)cc1 | HepG2 | cell growth or viability, MTT | 72 h | CC50 | 1.5 µM |
| Cc1cc(C(=O)Nc2nc3cccc(C)c3n2[C@H]2CCCCN(C(=O)/C=C/CN(C)C)C2)ccn1 | HepG2 | cytotoxicity | 4 days, single replicate | CC50 | 6.39 µM and 9.53 µM and 8.75 µM and 9.96 µM and 14.6 µM |
| O[C@@H](CNCCNC(c1ccccc1)c1ccccc1)c1cc(Cl)cc2c1-c1ccc(Cl)cc1C2 | HepG2 | cell growth or viability | 48 h | CC50 | 3.2 µM |
| COc1c(Br)cc(CCNC2=CC3=NCCc4c[nH]c(c43)C2=O)cc1Br | HepG2 | cell growth or viability, MTT | 72 h | CC50 | 2 µM |
| O=C(O)c1ccc(Nc2c(-c3ccccc3)nc3ccc(CON=Cc4c(F)cccc4Oc4ccccc4)cn23)cc1 | TDP1 | enzyme activity, inhibitor | 100 µM, unpurified compound | inhibition | 54.6% |
| CC(F)(F)CCCNC[C@H](O)c1cc(Cl)cc2c1-c1ccc(Cl)cc1C2 | HepG2 | cell growth or viability | 48 h | CC50 | 4.1 µM |
| Cc1ccc2c(=O)n3c(nc2c1)C(=O)c1cc(Cl)ccc1-3 | HepG2 | cell growth or viability, ATP luminescence |  | CC50 | 0.06 to 0.08 µM |
| O=C1C(NCCc2ccc(O)cc2)=CC2=NCCc3c(Br)[nH]c1c32 | HepG2 | cell growth or viability, MTT | 72 h | CC50 | 5 µM |

Excerpt of the above:
| SMILES | tested on | assay | conditions | measurement | result |
| --- | --- | --- | --- | --- | --- |
| NCCc1cccc(-c2nc(=O)c3ccccc3s2)n1 | HepG2 | cell growth or viability, resazurin | 24 h | CC50 | 73.4 µM |
| CCc1cc(CCN)nc(-c2nc(=O)c3ccccc3s2)c1 | HepG2 | cell growth or viability |  | CC50 | > 25 µM |
